Assay results of several laboratories.
Numbered parts are unrelated; each lists some results of a single study.
Chain of UniProt Q13283 (whole entry, looked up): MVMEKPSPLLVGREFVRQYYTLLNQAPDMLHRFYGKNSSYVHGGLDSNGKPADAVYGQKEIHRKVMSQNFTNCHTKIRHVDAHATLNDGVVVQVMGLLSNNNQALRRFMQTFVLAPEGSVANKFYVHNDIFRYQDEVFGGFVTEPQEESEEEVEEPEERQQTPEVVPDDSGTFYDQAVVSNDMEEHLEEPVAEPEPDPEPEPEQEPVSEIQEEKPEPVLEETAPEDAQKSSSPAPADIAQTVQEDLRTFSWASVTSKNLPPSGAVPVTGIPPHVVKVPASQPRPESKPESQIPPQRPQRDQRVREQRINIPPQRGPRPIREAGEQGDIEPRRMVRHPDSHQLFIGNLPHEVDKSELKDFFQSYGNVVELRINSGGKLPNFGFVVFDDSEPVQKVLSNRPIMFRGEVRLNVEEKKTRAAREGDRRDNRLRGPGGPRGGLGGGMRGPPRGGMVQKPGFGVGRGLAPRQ

Block 1 — technique: universal PBM; molecule type: double-stranded DNA, one strand shown; medium: in vitro; concentration: 600 nM; reading: higher = stronger binding; measurement: E-score
Target: Sal-like protein 4, full length isoform A (SALL4, Homo sapiens, UniProt Q9UJQ4, residues 1-1053)
Chain of UniProt Q9UJQ4 (whole entry, looked up): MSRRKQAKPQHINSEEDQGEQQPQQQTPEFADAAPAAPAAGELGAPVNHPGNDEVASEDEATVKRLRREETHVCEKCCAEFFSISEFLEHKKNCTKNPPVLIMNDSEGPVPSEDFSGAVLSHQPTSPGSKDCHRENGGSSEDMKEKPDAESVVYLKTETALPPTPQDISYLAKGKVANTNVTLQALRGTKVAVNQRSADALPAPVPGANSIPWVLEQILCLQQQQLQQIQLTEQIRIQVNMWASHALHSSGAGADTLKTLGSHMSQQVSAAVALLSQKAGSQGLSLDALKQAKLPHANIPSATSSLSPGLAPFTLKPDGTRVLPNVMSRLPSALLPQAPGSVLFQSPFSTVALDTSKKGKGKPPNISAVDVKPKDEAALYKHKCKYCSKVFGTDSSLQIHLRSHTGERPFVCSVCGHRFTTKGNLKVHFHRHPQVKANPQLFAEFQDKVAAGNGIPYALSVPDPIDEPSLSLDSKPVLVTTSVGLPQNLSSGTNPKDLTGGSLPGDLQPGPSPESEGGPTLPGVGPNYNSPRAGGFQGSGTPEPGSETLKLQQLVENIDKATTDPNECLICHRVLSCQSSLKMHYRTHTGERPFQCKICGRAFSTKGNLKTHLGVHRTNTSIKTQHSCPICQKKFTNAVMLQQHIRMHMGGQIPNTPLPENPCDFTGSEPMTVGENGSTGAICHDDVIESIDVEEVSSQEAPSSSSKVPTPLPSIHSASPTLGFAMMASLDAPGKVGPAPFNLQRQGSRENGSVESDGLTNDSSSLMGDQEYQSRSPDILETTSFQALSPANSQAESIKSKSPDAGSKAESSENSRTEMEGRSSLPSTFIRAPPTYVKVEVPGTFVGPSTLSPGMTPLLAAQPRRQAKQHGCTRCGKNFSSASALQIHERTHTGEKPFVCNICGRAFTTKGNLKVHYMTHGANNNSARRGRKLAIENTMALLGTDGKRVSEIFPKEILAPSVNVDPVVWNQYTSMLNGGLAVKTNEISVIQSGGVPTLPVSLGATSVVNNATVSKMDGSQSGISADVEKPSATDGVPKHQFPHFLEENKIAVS
Notes: 8-mer, flanks averaged, mean of replicates
CCATCGCG: -0.0645
AGACTTTC: 0.0833
CTGCAAGA: 0.0194
ACCCGCAG: -0.0858

Block 2 — technique: protein-binding microarray; molecule type: double-stranded DNA, one strand shown; medium: in vitro; concentration: 2200 nM top; notes: 60-bp whole probe; together with: salmon DNA 0.4 mg/ml; baseline: random background probes; reading: higher = stronger binding; measurement: fitted relative affinity
Target: Interferon regulatory factor 7, full length, phosphomimetic (IRF7, Homo sapiens, UniProt Q92985, residues 1-503, S471D/S472D/S475D/S476D/S477D/S483D/S484D/S487D)
Chain of UniProt Q92985 (whole entry, unmodified, looked up): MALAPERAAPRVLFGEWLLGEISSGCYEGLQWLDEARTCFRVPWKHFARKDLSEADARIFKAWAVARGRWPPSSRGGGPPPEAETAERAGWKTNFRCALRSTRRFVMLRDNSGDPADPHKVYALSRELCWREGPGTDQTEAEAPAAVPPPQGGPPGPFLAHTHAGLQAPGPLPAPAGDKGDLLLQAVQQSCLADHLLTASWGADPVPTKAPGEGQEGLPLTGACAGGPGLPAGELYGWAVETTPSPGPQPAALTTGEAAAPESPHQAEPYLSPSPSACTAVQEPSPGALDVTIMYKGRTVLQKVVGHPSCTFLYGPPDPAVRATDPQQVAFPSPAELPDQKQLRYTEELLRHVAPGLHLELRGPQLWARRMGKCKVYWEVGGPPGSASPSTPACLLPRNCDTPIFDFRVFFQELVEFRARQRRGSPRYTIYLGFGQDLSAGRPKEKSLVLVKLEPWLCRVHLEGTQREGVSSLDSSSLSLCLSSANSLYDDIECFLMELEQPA
GCCTAGCACAGTTAATCCCTCTCAGGCATGTGCTAGGTCTTGATTCGCTTGACGCTGCTG: 0.389 z-score
GCCTAGCACAGCAAGCCCCTTCCTTTCGGGTGCTAGGTCTTGATTCGCTTGACGCTGCTG: 0.945 z-score
GCCTAGCACTTAGGAGTGGTACATGAAGCGTGCTAGGTCTTGATTCGCTTGACGCTGCTG: -0.741 z-score

Other studies, line by line
PhoQ, residues 284 288 289 292 302 303 TVTVVA  fold induction (PhoP, residues 12 14 15 18 19 LHSVQ (Escherichia coli, UniProt P23836); Sort-seq, item: YFP reporter; E. coli; PhoQ-PhoP variant library, together with: 10 µM Mg2+; baseline: high Mg2+ state, higher = stronger signaling): 12.8
GGGAGUUCUACAGUCCGACGAUCCACAGACAACACGCACCCACACAGACACAGAGGGAAGGGGUUGGGAUGGGGACAGGGUGCACAGCAGGGCGGGGUAUGACCCCAGCCCCUUGGAAUUCUCGGGUGUCAAGG (7-deaza-guanosine replaces G)  log2 enrichment (Ras GTPase-activating protein-binding protein 1, full length (G3BP1, Homo sapiens, UniProt Q13283); RNA Bind-n-Seq; RNA, in vitro; 200 nM, whole 134-nt RNA, ends assumed, together with: 150 mM LiCl; baseline: input library, higher = stronger binding): 1.08

Some of these lines once more (block 1):
AGACTTTC: 0.0833
